Experimental data pooled from the literature.
Lines come from different studies, so protocols differ. “And” joins repeats or separate records; there may be more than shown. ± marks the error that the study gave.

| SMILES | cell line | assay | system | setting | scale | quantity | value |
| --- | --- | --- | --- | --- | --- | --- | --- |
| Cc1cn([C@H]2C[C@H](N=[N+]=[N-])[C@@H](CO)O2)c(=O)[nH]c1=O | CEM-SS | cell viability, XTT | – | with: glutathione 1 mM | – | TC50 | > 0.5 µM |
| CC[C@H](C)C(=O)N1CCC(NC(=O)Nc2ccc(OC(F)(F)F)c(F)c2)CC1 | Caco-2 | Caco-2 permeability | – | 10 µM, 60 min, pH 7.4 apical, 7.4 basolateral, mean, with: verapamil | apical to basolateral | percent recovery | 43% |
| Cc1cccc(CNC(=O)c2cn(CCNC(=O)c3ccccc3Sc3c([N+](=O)[O-])ncn3C)c3cc4c(cc3c2=O)OC(F)(F)O4)n1 | CEM-SS | cell viability, XTT | – | 6 days, RPMI with 10% FBS, with: glutathione 2 mM | – | TC50 | > 100 µM |
| Cc1nc(N(C)C(=O)Cc2ccc(-c3ccccn3)cc2)sc1S(N)(=O)=O | primary human keratinocytes uninfected | live/dead staining | – | 20 h | – | CC50 | 55.5 µM |
| O=C(N[C@@H]1CC[C@@H](c2cccc(F)c2F)CN(CC(F)(F)F)C1=O)N1CCC(n2c(=O)[nH]c3ncccc32)CC1 | cryopreserved human hepatocytes | – | – | concentration not given | – | intracellular accumulation | ≥ 12 fold |
| C[C@H](O)c1cnc(NS(=O)(=O)c2ccc(C(F)(F)F)c(Cl)c2)nc1 | cryopreserved human hepatocytes | pan-CYP inhibition | – | 1 µM, with: 1 mM 1-aminobenzotriazole and 15 µM tienilic acid | – | metabolism inhibited by ABT and TA | 24% |
| COc1cc(O)cc(/C=C/c2cccc(O)c2OC)c1 | HaCaT | cytotoxicity, MTT | – | 48 h, 10% FBS | – | IC50 | > 200 µM |
| C#Cc1c(F)ccc2cc(O)cc(-c3ncc4c(N5CC6CCC(C5)N6)nc(OC[C@@]56CCCN5C[C@H](F)C6)nc4c3F)c12 | Caco-2 | – | – | no inhibitor, BCRP (novobiocin) set | – | Papp (A to B) | < 0.479 ×10⁻⁶ cm/s |
| CN[C@H](CC(C)C)C(=O)N[C@H]1C(=O)N[C@@H](CC(N)=O)C(=O)N[C@H]2C(=O)N[C@H]3C(=O)N[C@H](C(=O)N[C@H](C(=O)O)c4cc(O)cc(O)c4-c4cc3ccc4O)[C@H](O)c3ccc(c(Cl)c3)Oc3cc2cc(c3O[C@@H]2O[C@H](CO)[C@@H](O)[C@H](O)[C@H]2O[C@H]2C[C@](C)(N)[C@H](O)[C@H](C)O2)Oc2ccc(cc2Cl)[C@H]1O | sheep erythrocytes | – | – | 512 µg/mL, 37 °C | reference: Triton X-100 | hemolysis | < 5% |
| CN(C)CCNC(=O)c1cccn2c(=O)c3cc4ccccc4cc3nc12 | HeLa | resazurin | – | 5 days | – | CC50 | < 0.28 µM |
| C1CCc2c(c(N3CCOCC3)nc3sc4c(N5CCNCC5)nnnc4c23)C1 | cryopreserved human hepatocytes | UHPLC-MS peak area | – | 1 µM, 120 min | – | percentage of drug-related material | 48.4% |
| C[C@H]1[C@H](OC(=O)CCC(=O)O)O[C@@H]2O[C@@]3(C)CC[C@H]4[C@H](C)CC[C@@H]1[C@@]24OO3 | human primary cardiac fibroblasts | cell viability | – | – | – | highest non-toxic concentration | > 50 µM |
| CCN1/C(=C/C(C)=O)Sc2ccc(F)cc21 | human hepatocytes | LC-MS | – | radiolabelled compound | – | number of metabolites identified | 8 |
| COc1cccc(-c2n[nH]c(SCc3ccccn3)n2)c1OC | CHO-WBL | – | – | 50 µg/mL, 3 h, with: rat liver S9 | – | micronuclei per binucleated cell | 0.014 |
| COc1cc(/C=C/C=C2\SC(=S)NC2=O)cc(OC)c1O | HeLa | CellTiter-Glo | – | 5 µM, 24 h, unit not given | reference: untreated | viability | 0.975 and 0.969 |
| O=C(/C=C\n1cnc(-c2cc(C(F)(F)F)cc(C(F)(F)F)c2)n1)NNc1ccccn1 | primary human keratinocytes uninfected | live/dead staining | – | 20 h | – | CC50 | 6.95 µM |
| CC[C@H]1OC(=O)[C@H](C)[C@@H](O[C@H]2C[C@@](C)(OC)[C@@H](O)[C@H](C)O2)[C@H](C)[C@@H](O[C@@H]2O[C@H](C)C[C@H](N(C)C)[C@H]2O)[C@](C)(O)C[C@@H](C)/C(=N\OCOCCOC)[C@H](C)[C@@H](O)[C@]1(C)O | human hepatocytes | item: CYP1A2 | – | concentration not given, 3 days | reference: negative control | mRNA level | < 4 fold |
| COc1cc2ncnc(Nc3ccc(Oc4ccccc4)cc3C)c2cc1OC.O=C(O)C(F)(F)F | MeWo (NF1) | resazurin | – | 0.1 µM, 72 h, with: trametinib 0 nM | – | viability fraction | 1 |
| CCCC(=O)OCSc1ccccc1C(=O)NCCCn1ccc(=O)c2cc3c(cc21)OCO3 | CEM-SS | cell viability, XTT | RPMI with 10% FBS | 6 days | – | TC50 | 16.1 ± 0.6 µM |

| SMILES | cell line | assay | system | setting | scale | quantity | value |
| --- | --- | --- | --- | --- | --- | --- | --- |
| C=CC(=O)N(C)CCOc1c(N)ncnc1-c1cc(F)cc(NC(=O)c2ccc(C3CC3)cc2F)c1C | human hepatocytes | item: CYP2B6 mRNA | – | – | reference: vehicle | maximum fold induction | 5.45 |
| CC(=O)Nc1cccc(-n2c(=O)n(C3CC3)c(=O)c3c(Nc4ccc(I)cc4F)n(C)c(=O)c(C)c32)c1 | LoVo (KRAS G13D) | resazurin | – | 50.00 nM, 72 h | reference: DMSO | viability fraction | 0.387 |
| CCC(=CCc1c(O)cc2c(c1O)C(=O)C[C@@H](c1ccccc1O)O2)CC | HeLa | cytotoxicity, MTT | – | 48 h, with: S9 fraction | – | log IC50 | 1.71 log µM |
| C[C@@H](c1ccc2nccn2c1)n1nnc2ncc(-c3cnn(C)c3)nc21 | human hepatocytes | item: CYP1A2 | – | concentration not given, 48 h | reference: omeprazole | mRNA induction | 1% |
| Nc1nc(NS(=O)(=O)c2ccccc2)nc(-c2ccc(Cl)cc2)c1-c1nc2ccccc2s1 | Vero | cytotoxicity | – | 72 h | – | maximum non-toxic concentration | 100 µg/mL |
| CC1(C)C2CCC1(CS(=O)(=O)[O-])C(=O)C2.[Na+] (racemic) | HCE | MTT | – | up to 50 µM | – | cytotoxicity | not toxic |
| CCCC(=O)OCSc1ccccc1C(=O)NCCn1cc(C(=O)NCc2cccnc2)c(=O)c2cc3c(cc21)OCO3 | CEM-SS | cell viability, XTT | RPMI with 10% FBS | 6 days | – | TC50 | > 100 µM |
| COc1ccc2nccc(Cc3cccc(-c4ccc(CO)cc4)c3)c2c1 | human hepatocytes | – | – | 10 µM, 2 h | – | parent remaining | < 1% |
| CN(C(=O)C(C)(C)c1cc(C(F)(F)F)cc(C(F)(F)F)c1)c1cnc(N2C[C@H]3COCCN3C[C@H]2CO)cc1-c1ccc(F)cc1[14CH3] | cryopreserved human hepatocytes | – | – | 5 µM, 1 h | – | turnover | 81.8% |
| O=P1(C2CCCCC2)CCCCC1 | SW480 | trypan blue | – | IC50, 72 h | – | viability | 96.3% |
| CCCC(=O)OCSc1ccccc1C(=O)NCCn1cc(C(=O)NCc2ccccc2)c(=O)c2cc3c(cc21)OCO3 | CEM-SS | cell viability, XTT | RPMI with 10% FBS | 6 days | – | TC50 | > 100 µM |
| CCC[C@H](CC)Oc1ccc(C(=O)NCCOCCOCCOCC(=O)N[C@H](C(=O)N2C[C@H](O)C[C@H]2C(=O)NCc2ccc(-c3scnc3C)cc2)C(C)(C)C)cc1NC(=O)c1nnn(-c2cc(OC)ccc2OC)c1C | SNU-C4 HiBiT-PXR knock-in | CellTiter-Glo | – | 72 h, 10% FBS | – | CC50 | > 30 µM |
| CCCC(=O)OCSc1ccccc1C(=O)NCCC(=O)NCCn1ccc(=O)c2cc3c(cc21)OCO3 | CEM-SS | cell viability, XTT | RPMI with 10% FBS | 6 days | – | TC50 | > 100 µM |
| O=C(CNc1nc(NS(=O)(=O)c2ccccc2)ncc1-c1nc2ccccc2s1)c1ccc(Br)cc1 | Vero | cytotoxicity | – | 72 h | – | maximum non-toxic concentration | 120 µg/mL |
| CCCC(=O)OCSc1ccccc1C(=O)NCCn1cc(C(=O)NCc2cccc(C)n2)c(=O)c2cc3c(cc21)OC(F)(F)O3 | human PBMCs, PHA-P-stimulated | XTT | – | 7 days, CMU08 line | – | TC50 | > 100 µM |
| Cc1cc(C(=O)NC(C)(C)COc2cccc3c2C(N)=NS(=O)(=O)N3)cc(C)n1 | human peripheral blood lymphocytes | in vitro micronucleus | – | 500 µg/mL, 4 h, without S9, DMSO 0.4% | – | micronucleated binucleated cells | 0.2% |
| CCCC(=O)OCSc1ccccc1C(=O)NCCOc1ccnc2ccc(F)cc12 | CEM-SS | cell viability, XTT | RPMI with 10% FBS | 6 days | – | TC50 | 15.5 µM |
| CC(C)n1ncc2c(C(=O)NCC3(C)CNC3)cc(C3CC3)nc21 | HeLa | neutral red uptake | – | 0.11 µM, 2% FBS | reference: positive control | viability | 100% |

Repeated from above:
| SMILES | cell line | assay | system | setting | scale | quantity | value |
| --- | --- | --- | --- | --- | --- | --- | --- |
| O=P1(C2CCCCC2)CCCCC1 | SW480 | trypan blue | – | IC50, 72 h | – | viability | 96.3% |
| CN[C@H](CC(C)C)C(=O)N[C@H]1C(=O)N[C@@H](CC(N)=O)C(=O)N[C@H]2C(=O)N[C@H]3C(=O)N[C@H](C(=O)N[C@H](C(=O)O)c4cc(O)cc(O)c4-c4cc3ccc4O)[C@H](O)c3ccc(c(Cl)c3)Oc3cc2cc(c3O[C@@H]2O[C@H](CO)[C@@H](O)[C@H](O)[C@H]2O[C@H]2C[C@](C)(N)[C@H](O)[C@H](C)O2)Oc2ccc(cc2Cl)[C@H]1O | sheep erythrocytes | – | – | 512 µg/mL, 37 °C | reference: Triton X-100 | hemolysis | < 5% |
| COc1cc(/C=C/C=C2\SC(=S)NC2=O)cc(OC)c1O | HeLa | CellTiter-Glo | – | 5 µM, 24 h, unit not given | reference: untreated | viability | 0.975 and 0.969 |
| CC[C@H]1OC(=O)[C@H](C)[C@@H](O[C@H]2C[C@@](C)(OC)[C@@H](O)[C@H](C)O2)[C@H](C)[C@@H](O[C@@H]2O[C@H](C)C[C@H](N(C)C)[C@H]2O)[C@](C)(O)C[C@@H](C)/C(=N\OCOCCOC)[C@H](C)[C@@H](O)[C@]1(C)O | human hepatocytes | item: CYP1A2 | – | concentration not given, 3 days | reference: negative control | mRNA level | < 4 fold |
| O=C(CNc1nc(NS(=O)(=O)c2ccccc2)ncc1-c1nc2ccccc2s1)c1ccc(Br)cc1 | Vero | cytotoxicity | – | 72 h | – | maximum non-toxic concentration | 120 µg/mL |
